Experimental data gathered from unrelated publications.
Every numbered part comes from another study and shows a few of its results, in no order.

Set 1
Target: Histone acetyltransferase KAT6A, both winged helices, GST fusion (KAT6A, Homo sapiens, UniProt Q92794, residues 1-181)
Technique: protein binding microarray
Molecule type: double-stranded DNA, one strand shown
Medium: in vitro
Concentration: not given
Notes: 8-mer, flanks averaged, mean of 2 arrays, mostly near background
Relative to: not given
Direction: higher = stronger binding
Construct (chain): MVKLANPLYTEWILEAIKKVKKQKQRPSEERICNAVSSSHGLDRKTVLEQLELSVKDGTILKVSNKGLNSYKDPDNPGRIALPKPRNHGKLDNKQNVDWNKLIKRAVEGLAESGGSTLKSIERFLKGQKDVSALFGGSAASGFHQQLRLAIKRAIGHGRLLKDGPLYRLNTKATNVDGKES
Sequence	E-score
GGGACTGA	-0.0692
CGGACCGA	0.153
ACGGGTCG	0.243

Set 2
Target: Interferon regulatory factor 5, full length, phosphomimetic (IRF5, Homo sapiens, UniProt Q13568-2, residues 1-514, K96S/S451D/S453D/S456D/S462D)
Technique: protein-binding microarray
Molecule type: double-stranded DNA, one strand shown
Medium: in vitro
Concentration: 250 nM
Notes: 60-bp whole probe
With: salmon DNA 0.4 mg/ml
Relative to: random background probes
Direction: higher = stronger binding
Sequence	log fluorescence [z-score]
GCCTAGCACGACGCACTGGGGACTGGAGACGTGCTAGTCTTGATTCGCTTGACGCTGCTG	-0.477
GCCTAGCACTTAGGTTCCTTTTTCCTTTAGTGCTAGGTCTTGATTCGCTTGACGCTGCTG	0.882
GCCTAGCACCTCTGCTTGTGTCTGGGCTTGTGCTAGGTCTTGATTCGCTTGACGCTGCTG	-0.505
GCCTAGCACGACGATCTCTGTTTCGAGACGTGCTAGGTCTTGATTCGCTTGACGCTGCTG	2.4

Set 3
Target: Centromere-binding protein 1, full length, N-terminal tag (CBF1, Saccharomyces cerevisiae, UniProt P17106, residues 1-351)
UniProt P17106, sequence (whole entry, looked up): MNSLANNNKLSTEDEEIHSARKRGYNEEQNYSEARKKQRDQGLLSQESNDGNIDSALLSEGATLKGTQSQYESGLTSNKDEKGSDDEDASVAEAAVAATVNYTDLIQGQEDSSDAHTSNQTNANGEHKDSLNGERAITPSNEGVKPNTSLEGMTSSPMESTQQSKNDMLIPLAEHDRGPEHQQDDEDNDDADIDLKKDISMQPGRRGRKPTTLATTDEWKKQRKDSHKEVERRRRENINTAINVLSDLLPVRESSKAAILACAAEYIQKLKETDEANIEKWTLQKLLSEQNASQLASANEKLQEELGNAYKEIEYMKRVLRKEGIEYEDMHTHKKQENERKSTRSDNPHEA
Technique: protein-binding microarray
Molecule type: double-stranded DNA, one strand shown
Medium: in vitro
Concentration: 0.8 µM
Notes: whole 60-bp probe, no competitor
Direction: higher = stronger binding
Sequence	fluorescence intensity [a.u.]
GAAAGGGTGGAAGGACATCAGGCATAAGGAAGTTAGGTCTTGATTCGCTTGACGCTGCTG	530
CTATGCTTTTTTCACATGACCATATTATATTCGTTCGTCTTGATTCGCTTGACGCTGCTG	2480
CTACAAGTTCCGGGTAGTCACATGGAAACAATGTTCGTCTTGATTCGCTTGACGCTGCTG	2880
GAAACTAGTAGGAATTGCGTGAAGTACTATATATAGGTCTTGATTCGCTTGACGCTGCTG	524

Other studies, line by line
Substance	target	assay	system	setting	how to read	endpoint	value
PhoQ, residues 284 288 289 292 302 303 NLGVHL	PhoP, residues 12 14 15 18 19 NQCAL (Escherichia coli, UniProt P23836)	Sort-seq, measured: YFP reporter	E. coli	PhoQ-PhoP variant library, with: 10 µM Mg2+	relative to: high Mg2+ state, higher = stronger signaling	fold induction	1.34
